Experimental data from different studies.
A part holds a random share of what one study measured. Changes are numbered by the printed parent chain.
UniProt P42679, sequence (whole entry, looked up): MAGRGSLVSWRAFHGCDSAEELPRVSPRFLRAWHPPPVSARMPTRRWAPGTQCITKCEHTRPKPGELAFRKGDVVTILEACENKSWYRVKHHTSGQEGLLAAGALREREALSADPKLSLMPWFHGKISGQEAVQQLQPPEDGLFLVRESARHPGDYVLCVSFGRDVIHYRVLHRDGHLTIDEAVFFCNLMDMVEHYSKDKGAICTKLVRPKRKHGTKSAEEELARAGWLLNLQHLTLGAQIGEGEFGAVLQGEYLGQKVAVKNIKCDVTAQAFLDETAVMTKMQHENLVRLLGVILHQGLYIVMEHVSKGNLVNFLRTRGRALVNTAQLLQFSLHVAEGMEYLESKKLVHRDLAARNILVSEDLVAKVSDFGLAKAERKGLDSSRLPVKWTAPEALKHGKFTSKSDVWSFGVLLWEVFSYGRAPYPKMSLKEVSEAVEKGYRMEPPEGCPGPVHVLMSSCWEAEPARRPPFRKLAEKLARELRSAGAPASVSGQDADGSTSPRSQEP
UniProt O00506, sequence (whole entry, looked up): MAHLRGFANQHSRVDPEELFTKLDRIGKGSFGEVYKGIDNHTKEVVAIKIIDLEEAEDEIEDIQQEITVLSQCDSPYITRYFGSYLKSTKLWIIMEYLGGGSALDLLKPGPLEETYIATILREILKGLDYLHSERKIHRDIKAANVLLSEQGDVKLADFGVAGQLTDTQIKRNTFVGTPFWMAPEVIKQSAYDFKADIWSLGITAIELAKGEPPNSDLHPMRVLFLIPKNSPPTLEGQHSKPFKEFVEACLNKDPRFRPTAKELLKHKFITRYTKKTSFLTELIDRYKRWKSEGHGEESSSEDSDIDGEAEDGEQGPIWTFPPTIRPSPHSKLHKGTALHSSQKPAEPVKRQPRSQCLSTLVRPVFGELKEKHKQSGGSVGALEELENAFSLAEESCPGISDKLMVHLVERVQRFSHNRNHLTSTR
UniProt P06213, sequence (whole entry, looked up): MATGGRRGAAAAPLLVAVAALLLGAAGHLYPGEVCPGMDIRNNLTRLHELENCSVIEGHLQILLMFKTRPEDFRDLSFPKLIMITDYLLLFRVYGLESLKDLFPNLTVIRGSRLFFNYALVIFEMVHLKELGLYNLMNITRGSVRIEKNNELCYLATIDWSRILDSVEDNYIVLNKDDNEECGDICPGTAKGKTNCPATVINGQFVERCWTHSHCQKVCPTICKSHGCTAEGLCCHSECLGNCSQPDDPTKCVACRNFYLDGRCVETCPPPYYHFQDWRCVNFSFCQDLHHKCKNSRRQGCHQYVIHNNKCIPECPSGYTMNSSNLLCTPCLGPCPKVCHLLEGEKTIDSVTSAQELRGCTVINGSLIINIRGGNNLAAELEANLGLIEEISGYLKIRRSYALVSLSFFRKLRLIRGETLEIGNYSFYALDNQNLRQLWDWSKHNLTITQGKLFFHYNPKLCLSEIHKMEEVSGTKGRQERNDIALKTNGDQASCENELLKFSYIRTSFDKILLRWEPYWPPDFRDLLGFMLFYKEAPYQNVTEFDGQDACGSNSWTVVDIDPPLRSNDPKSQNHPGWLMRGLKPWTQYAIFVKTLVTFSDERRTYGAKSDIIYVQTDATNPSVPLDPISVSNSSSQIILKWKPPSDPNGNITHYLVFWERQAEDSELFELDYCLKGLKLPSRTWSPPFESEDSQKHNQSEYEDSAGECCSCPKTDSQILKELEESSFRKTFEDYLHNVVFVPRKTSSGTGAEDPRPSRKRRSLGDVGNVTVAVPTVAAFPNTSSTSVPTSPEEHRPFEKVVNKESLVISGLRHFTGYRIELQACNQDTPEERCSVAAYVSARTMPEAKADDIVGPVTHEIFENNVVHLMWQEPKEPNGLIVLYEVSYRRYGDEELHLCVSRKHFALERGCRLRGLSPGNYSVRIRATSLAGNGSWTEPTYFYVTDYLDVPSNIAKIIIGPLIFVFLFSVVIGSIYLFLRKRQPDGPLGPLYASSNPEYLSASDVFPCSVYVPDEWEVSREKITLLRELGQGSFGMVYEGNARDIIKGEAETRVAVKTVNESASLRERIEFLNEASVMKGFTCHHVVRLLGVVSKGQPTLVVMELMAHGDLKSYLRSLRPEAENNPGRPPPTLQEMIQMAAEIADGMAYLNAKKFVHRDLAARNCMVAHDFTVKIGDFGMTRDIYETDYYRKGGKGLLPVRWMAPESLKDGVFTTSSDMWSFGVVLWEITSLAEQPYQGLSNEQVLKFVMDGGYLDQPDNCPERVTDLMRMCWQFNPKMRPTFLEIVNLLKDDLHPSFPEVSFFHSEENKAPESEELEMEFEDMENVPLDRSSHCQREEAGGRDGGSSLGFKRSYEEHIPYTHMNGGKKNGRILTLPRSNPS

Sample 1
Target: Mu-type opioid receptor (OPRM1, Homo sapiens, UniProt P35372)
UniProt P35372, sequence (whole entry, looked up): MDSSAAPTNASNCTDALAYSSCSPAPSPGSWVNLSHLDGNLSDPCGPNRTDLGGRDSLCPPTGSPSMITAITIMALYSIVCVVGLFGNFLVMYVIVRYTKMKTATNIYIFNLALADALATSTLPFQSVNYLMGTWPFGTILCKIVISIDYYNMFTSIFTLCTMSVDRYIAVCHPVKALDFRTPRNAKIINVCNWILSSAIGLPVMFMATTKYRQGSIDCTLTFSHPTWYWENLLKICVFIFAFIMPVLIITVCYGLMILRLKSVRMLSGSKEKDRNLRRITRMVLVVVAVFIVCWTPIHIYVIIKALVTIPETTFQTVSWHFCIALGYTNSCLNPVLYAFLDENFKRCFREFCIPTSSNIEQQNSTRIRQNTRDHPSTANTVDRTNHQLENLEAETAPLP
Observed: binding
Technique: radioligand binding
Concentration: 10 µM
Endpoint: inhibition
CCCOc1ccc([C@H]2[C@H](C(=O)O)[C@@H](c3ccc4c(c3)OCO4)CN2CC(=O)Nc2c(CC)cccc2CC)cc1: 6.79%
Cc1cc(-n2nc(Cc3cc(F)cc(C(F)(F)F)c3)nc2C)ccc1C(N)=O: 0.37%
CC(C)(O)c1cncc(-c2nc3ccc(F)cc3n2C2CC2)c1: 0.18%
Cc1nccc(COC(=O)N2C[C@@H]3[C@@H](CNC(=O)c4ccc5[nH]nnc5c4)[C@@H]3C2)n1: 12.1%
CC(=O)c1c(NS(C)(=O)=O)c2cc(-c3ccc(Cl)cc3)c(-c3ccc(Cl)cc3Cl)nc2n(C)c1=O: 34.4%
CC(=O)Nc1c(F)cc(C(=O)N[C@H]2CC[C@H](O)CC2)cc1O[C@@H](C)c1ccccc1: 20.4%
Cc1c(N2CCCC2)nc2ccc(Br)cc2c1C(=O)NC[C@H](CCC(=O)O)c1ccccc1Cl: 11.7%
O=C1c2ccc(Nc3ccc(F)cc3F)cc2CCc2ccc(OC[C@H](O)CO)cc21: 22.5%
O=C([C@H]1C[C@H](O)CN1c1ccc(Cl)cc1)N1CC2COCC(C1)N2Cc1ccc(Cl)cc1: 4.45%
O=C(O)c1cc(-c2ccc(C3CCNCC3)cc2)c2ccc(-c3ccc(C(F)(F)F)cc3)cc2c1: 19.3%
CN(C)C(=O)Cn1cc(-c2nc([C@@](C)(c3ccc(-c4cnc(N)nc4)cc3)C3CC3)no2)cn1: 4.55%
O=C(NC[C@@H]1[C@H]2CN(C(=O)OCc3cc(C(F)(F)F)cc(C(F)(F)F)c3)C[C@@H]12)c1ccc2[nH]nnc2c1: 43%
CC1=C(C#N)[C@@H](c2ccc3[nH]nc(C)c3c2)C(C#N)=C(c2ccc(Cl)cc2)N1: -0.0207%
CN1CCN(C(=O)C(C)(C)c2ccc(C(=O)Nc3cn4cc(-c5ccncc5)ccc4n3)cc2)CC1: 5.33%
CC(=O)Nc1nc(CN2CCC[C@H](Cc3cc(C)nc(C)c3)C2)cs1: 27.3%
C[C@@]1(Cc2ccc(C#N)cc2)C(=O)N(c2cc(Cl)cc(Cl)c2)c2ncc(C(=O)NC3(c4nc(C5CCC5)no4)CC3)n21: 31.1%
CC(=O)N1CCC(c2ccc(C(=O)NC(=N)N)cc2C(F)(F)F)CC1: 8.98%
CCOCCn1cc(C(=O)Nc2ccc(-n3nc(-c4cccnc4)cc3C(F)(F)F)cn2)ccc1=O: 2.68%
Cc1nc(N2CC[C@@H](O)C2)ncc1-c1cc(C(F)(F)F)cc2[nH]ncc12: 7.79%
O=C(Nc1ccc(-n2nc(-c3cccnc3)cc2C(F)(F)F)cn1)c1ccc(-c2ccccc2)c(F)c1: 7.17%
C[C@H](NC(=O)c1cnc2n1[C@](C)(Cc1ccc(C#N)cc1)C(=O)N2c1cc(Cl)c(F)c(Cl)c1)C(=O)NC1(c2ccccn2)CC1: 17.4%

Sample 2
Target: tungstate, free oxyanion
Technique: microfluidic competitive inhibition
Sample: in vitro, cell-free expressed
Concentration: not given
Setting: derived from inhibition constants, unchanged parent 2230 nM
Direction: lower = stronger binding
Endpoint: oxyanion analog dissociation constant
Starting sequence: PafA, mature enzyme, eGFP fusion (Elizabethkingia meningoseptica, UniProt Q9KJX5); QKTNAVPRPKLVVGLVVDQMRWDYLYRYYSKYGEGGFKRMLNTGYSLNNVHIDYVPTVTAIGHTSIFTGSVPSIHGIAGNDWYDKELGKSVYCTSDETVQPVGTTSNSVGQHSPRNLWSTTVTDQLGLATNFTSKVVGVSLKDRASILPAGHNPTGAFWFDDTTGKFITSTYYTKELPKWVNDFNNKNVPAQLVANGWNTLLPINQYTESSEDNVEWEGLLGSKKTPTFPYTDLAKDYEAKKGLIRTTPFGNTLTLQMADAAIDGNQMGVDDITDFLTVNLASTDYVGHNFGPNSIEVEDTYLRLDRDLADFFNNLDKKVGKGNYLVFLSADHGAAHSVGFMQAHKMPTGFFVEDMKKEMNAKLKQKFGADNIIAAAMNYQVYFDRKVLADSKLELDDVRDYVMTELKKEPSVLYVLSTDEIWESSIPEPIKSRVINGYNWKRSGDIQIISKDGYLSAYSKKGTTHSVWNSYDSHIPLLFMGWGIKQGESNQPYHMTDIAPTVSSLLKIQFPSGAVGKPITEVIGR
S490G: 2320 nM
A375V: 2300 nM
A129V: 2050 nM
A129G: 2050 nM
K357G: 2310 nM
A310G: 2290 nM
V50G: 867 nM
D391G: 2330 nM

Sample 3
Target: CCNB1, cyclin fold, Cln2 fusion (human)
Technique: yeast growth competition, sequencing
Sample: yeast
Setting: strong parent motif
Baseline: not given
Direction: higher = stronger binding
Endpoint: normalised enrichment score
Starting sequence: viral docking peptide; TSVRRALFTGGSD
R5I: 0.873
G11V: 2.29
F8M: 0.327
F8I: -0.024
L7P: 0.125
V3E: 0.0797
G11F: 1.71
S12P: 2.59

Sample 4
SMILES: N/C(=N\[N+](=O)[O-])N/N=C\c1ccc(-c2cccc([N+](=O)[O-])c2)o1
Observed: enzyme activity
Mode: inhibitor
Concentration: 0.5 µM
Baseline: control
Endpoint: remaining activity
Insulin receptor (INSR, Homo sapiens, UniProt P06213): 92%
MATK (Homo sapiens, UniProt P42679): 94.3%
STK25 (Homo sapiens, UniProt O00506): 86.3%

Sample 5
Target: UDP-N-acetylglucosamine--peptide N-acetylglucosaminyltransferase 110 kDa subunit (OGT, Homo sapiens, UniProt O15294)
UniProt O15294, sequence (whole entry, looked up): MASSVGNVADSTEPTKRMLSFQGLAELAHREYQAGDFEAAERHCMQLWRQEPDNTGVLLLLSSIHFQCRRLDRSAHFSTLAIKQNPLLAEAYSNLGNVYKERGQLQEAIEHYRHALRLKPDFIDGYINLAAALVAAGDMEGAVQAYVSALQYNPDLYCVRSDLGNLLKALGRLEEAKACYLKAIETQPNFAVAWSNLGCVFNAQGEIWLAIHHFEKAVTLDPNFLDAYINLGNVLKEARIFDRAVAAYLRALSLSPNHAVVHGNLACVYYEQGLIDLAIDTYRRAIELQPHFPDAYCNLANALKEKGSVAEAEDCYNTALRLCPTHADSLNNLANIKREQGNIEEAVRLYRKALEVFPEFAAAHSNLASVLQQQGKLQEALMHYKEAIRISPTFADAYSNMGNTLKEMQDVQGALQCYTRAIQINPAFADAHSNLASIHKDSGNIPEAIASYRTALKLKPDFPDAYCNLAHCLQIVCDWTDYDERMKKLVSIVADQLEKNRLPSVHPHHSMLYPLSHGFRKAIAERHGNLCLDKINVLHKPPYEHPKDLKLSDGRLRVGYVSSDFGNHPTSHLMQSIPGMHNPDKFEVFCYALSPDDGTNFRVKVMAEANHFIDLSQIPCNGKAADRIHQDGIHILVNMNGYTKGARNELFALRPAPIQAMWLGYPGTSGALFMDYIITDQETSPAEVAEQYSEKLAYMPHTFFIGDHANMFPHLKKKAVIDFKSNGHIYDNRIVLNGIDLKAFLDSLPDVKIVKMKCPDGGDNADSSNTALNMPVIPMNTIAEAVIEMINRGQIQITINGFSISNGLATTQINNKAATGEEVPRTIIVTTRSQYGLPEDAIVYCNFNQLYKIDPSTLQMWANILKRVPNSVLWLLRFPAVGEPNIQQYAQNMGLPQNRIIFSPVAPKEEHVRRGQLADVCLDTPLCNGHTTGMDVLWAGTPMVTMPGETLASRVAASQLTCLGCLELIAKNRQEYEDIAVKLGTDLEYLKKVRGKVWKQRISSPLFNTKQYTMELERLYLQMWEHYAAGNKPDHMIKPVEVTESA
Observed: binding
Technique: phage display NGS
Molecule type: peptide
Concentration: concentration not given
Setting: panning round 2
Baseline: input library
Endpoint: enrichment fold change
YEPMYLPQYQMIWNK: 30
TQFHNHHARDWSKQT: 5.92
EVHRDMRYGHAPHA: 4.53
HWGGVHIDHHTVNV: 7.14
WERHYHHWSTYTPSA: 5.19
STYTPFYPIKFWANR: 6.33
AQFTPKYMIIPNDWL: 21.8
ERVYDPMYQIRIDFT: 4.13

Excerpt of the above (sample 1):
O=C(NC[C@@H]1[C@H]2CN(C(=O)OCc3cc(C(F)(F)F)cc(C(F)(F)F)c3)C[C@@H]12)c1ccc2[nH]nnc2c1: 43%
CCOCCn1cc(C(=O)Nc2ccc(-n3nc(-c4cccnc4)cc3C(F)(F)F)cn2)ccc1=O: 2.68%
CC1=C(C#N)[C@@H](c2ccc3[nH]nc(C)c3c2)C(C#N)=C(c2ccc(Cl)cc2)N1: -0.0207%
CCCOc1ccc([C@H]2[C@H](C(=O)O)[C@@H](c3ccc4c(c3)OCO4)CN2CC(=O)Nc2c(CC)cccc2CC)cc1: 6.79%
O=C(O)c1cc(-c2ccc(C3CCNCC3)cc2)c2ccc(-c3ccc(C(F)(F)F)cc3)cc2c1: 19.3%
CN(C)C(=O)Cn1cc(-c2nc([C@@](C)(c3ccc(-c4cnc(N)nc4)cc3)C3CC3)no2)cn1: 4.55%
CC(=O)c1c(NS(C)(=O)=O)c2cc(-c3ccc(Cl)cc3)c(-c3ccc(Cl)cc3Cl)nc2n(C)c1=O: 34.4%
CC(=O)N1CCC(c2ccc(C(=O)NC(=N)N)cc2C(F)(F)F)CC1: 8.98%
